Published values pooled from the literature.
Protocols differ between the studies behind these lines. “And” joins repeats or separate records; there may be more than shown.
Chain of UniProt P48730 (whole entry, looked up): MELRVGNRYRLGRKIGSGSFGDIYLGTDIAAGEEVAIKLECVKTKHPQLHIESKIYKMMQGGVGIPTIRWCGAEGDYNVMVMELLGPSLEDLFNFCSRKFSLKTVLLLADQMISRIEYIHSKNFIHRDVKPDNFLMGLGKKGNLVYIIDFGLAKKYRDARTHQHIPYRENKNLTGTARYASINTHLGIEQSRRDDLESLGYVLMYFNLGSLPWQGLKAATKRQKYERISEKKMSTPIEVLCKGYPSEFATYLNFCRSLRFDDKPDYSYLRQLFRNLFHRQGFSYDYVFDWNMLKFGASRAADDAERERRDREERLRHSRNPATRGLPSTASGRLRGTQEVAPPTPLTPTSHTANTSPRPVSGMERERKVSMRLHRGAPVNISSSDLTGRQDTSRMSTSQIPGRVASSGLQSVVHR
Chain of UniProt P53350 (whole entry, looked up): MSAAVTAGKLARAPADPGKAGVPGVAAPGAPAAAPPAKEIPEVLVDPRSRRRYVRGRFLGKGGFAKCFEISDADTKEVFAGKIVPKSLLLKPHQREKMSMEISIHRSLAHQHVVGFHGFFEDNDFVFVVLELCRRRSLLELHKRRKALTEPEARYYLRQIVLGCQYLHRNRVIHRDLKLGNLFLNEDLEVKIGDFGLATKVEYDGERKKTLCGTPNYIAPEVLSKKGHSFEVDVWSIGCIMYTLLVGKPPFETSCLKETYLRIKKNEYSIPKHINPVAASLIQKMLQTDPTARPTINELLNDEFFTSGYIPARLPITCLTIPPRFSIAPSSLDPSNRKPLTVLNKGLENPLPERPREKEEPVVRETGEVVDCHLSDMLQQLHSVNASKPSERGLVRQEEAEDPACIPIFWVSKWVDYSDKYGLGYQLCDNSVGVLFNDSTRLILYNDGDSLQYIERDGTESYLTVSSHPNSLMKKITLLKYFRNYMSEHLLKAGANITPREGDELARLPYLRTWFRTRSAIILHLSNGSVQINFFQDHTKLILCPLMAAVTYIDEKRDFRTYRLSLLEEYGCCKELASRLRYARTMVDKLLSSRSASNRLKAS
Chain of UniProt P36897 (whole entry, looked up): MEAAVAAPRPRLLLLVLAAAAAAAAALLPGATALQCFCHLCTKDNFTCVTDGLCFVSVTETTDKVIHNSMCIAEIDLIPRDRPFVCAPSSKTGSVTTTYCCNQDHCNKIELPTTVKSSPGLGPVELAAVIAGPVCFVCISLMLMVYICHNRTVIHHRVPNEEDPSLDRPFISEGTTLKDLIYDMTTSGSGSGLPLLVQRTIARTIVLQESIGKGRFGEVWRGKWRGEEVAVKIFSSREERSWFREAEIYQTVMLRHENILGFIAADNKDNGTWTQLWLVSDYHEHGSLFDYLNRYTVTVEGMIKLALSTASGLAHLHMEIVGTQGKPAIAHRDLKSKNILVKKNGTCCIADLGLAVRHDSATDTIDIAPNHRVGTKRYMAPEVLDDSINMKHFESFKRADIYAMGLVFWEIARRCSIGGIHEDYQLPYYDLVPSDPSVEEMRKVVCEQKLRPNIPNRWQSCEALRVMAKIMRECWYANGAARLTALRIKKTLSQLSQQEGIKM
Chain of UniProt Q16566 (whole entry, looked up): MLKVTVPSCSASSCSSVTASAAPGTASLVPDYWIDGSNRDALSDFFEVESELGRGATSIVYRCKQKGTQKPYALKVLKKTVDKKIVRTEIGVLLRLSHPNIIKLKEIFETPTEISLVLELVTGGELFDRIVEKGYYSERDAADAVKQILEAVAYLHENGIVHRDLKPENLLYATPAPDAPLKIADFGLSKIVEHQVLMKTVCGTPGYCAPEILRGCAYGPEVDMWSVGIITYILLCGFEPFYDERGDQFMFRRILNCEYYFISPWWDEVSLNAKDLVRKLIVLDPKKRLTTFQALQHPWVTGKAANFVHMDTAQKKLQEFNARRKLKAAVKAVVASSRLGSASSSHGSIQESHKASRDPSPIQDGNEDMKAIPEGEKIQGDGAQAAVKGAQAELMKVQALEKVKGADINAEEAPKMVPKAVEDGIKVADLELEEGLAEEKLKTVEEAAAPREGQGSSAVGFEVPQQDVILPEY
Chain of UniProt P49137 (whole entry, looked up): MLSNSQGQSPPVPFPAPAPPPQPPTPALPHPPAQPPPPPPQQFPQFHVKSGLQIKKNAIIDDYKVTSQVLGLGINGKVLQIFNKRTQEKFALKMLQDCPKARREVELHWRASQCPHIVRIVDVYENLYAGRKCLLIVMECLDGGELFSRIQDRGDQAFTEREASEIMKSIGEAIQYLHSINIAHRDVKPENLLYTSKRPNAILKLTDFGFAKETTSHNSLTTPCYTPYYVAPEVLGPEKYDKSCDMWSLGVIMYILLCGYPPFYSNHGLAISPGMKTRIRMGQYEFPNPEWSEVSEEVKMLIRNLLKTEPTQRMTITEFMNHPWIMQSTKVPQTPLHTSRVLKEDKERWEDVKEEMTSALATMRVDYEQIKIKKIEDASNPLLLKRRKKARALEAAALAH

CN(C)C(=O)c1ccc(-c2c(-c3ccccn3)nc3n2CCC3)cc1  IC50 (Leishmania infantum; parasite growth; intracellular, amastigote): 29 µM and > 64 µM
CC(C)[C@@H]1NC(=O)[C@@H](CCCCN)NC(=O)[C@H]([C@@H](C)O)NC(=O)[C@@H](CCCN)NC(=O)[C@H](Cc2ccccc2)NC(=O)[C@@H](Cc2ccccc2)NC1=O  IC50 (Balamuthia mandrillaris; parasite growth, ATP luminescence; 72 h): ≤ 5 µM
CN(O)N=Nc1ccc(S(=O)(=O)Nc2nccs2)cc1  inhibition (DPPH scavenging, absorbance; 60 µg/mL): 13%
Fc1ccc(Nc2c(-c3cccc(F)n3)nc3ccccn23)cc1  IC50 (Leishmania infantum; parasite growth; intracellular, amastigote): 30.1 µM and > 64 µM
CN(C)c1cc(NC(=O)c2ccccn2)c(O)c2c1C[C@H]1C[C@H]3[C@H](N(C)C)C(O)=C(C(N)=O)C(=O)[C@@]3(O)C(O)=C1C2=O  IC50 (Mycobacteroides abscessus; microbial growth, resazurin; ATCC19977): > 128 µg/mL
COc1ccc(-c2nc3ccccn3c2N(C)c2ccc(F)cc2)nc1  IC50 (Leishmania infantum; parasite growth; intracellular, amastigote): 0.76 µM and 0.35 µM
Nc1nc2c(ncn2COCCO)c(=O)[nH]1  IC50 (Human alphaherpesvirus 2; viral replication, inhibitor, qPCR; HeLa): 0.12 µM
COc1cc(-c2cncc3c2CN(C)Cc2cc(N4CCNCC4)ccc2-3)cc(OC)c1OC  remaining activity (MAP kinase-activated protein kinase 2 (MAPKAPK2, Homo sapiens, UniProt P49137); enzyme activity, inhibitor; 1 µM): 108%
CN(C)c1cc(NC(=O)Cc2ncccn2)c(O)c2c1C[C@H]1C[C@H]3[C@H](N(C)C)C(O)=C(C(N)=O)C(=O)[C@@]3(O)C(O)=C1C2=O  IC50 (Mycobacteroides abscessus; microbial growth, resazurin; ATCC19977): 0.91 µg/mL
CNc1ncc2c(/C=C/C(=O)N3CCC(OC)CC3)nn(Cc3cccc(C(F)(F)F)c3)c2n1  remaining activity (Serine/threonine-protein kinase PLK1 (PLK1, Homo sapiens, UniProt P53350); enzyme activity, inhibitor, radiometric; 1 µM): 109%
CCCCCCCCCCCCCCCCOP(=O)([O-])OCC[N+](C)(C)C  IC50 (Leishmania infantum; parasite growth; mouse Macrophage; intracellular, amastigote): ~5 µM
C=CC(=O)N1CCC(COCC(=O)N2CCN(c3nc(-c4cnc(N)nc4C(F)F)nc(N4CCOC[C@@H]4C)n3)CC2)CC1  remaining binding (Casein kinase I isoform delta (CSNK1D, Homo sapiens, UniProt P48730); binding, competition with immobilised ligand; 1 µM): 100%
CCCCC(=O)Nc1ccc(-c2ccc3ncn(CCC)c(=O)c3c2)cn1  remaining binding (Calcium/calmodulin-dependent protein kinase type IV (CAMK4, Homo sapiens, UniProt Q16566); binding, competition with immobilised ligand; 0.5 µM): 90%
Fc1ccc(Nc2c(-c3ccccn3)nc3c(F)cccn23)cc1  IC50 (Leishmania infantum; parasite growth; intracellular, amastigote): 24.5 µM and > 64 µM
CC(C)[C@@H]1NC(=O)[C@@H](CCCNC(=N)N)NC(=O)[C@H]([C@@H](C)O)NC(=O)[C@@H](CCCN)NC(=O)[C@H](Cc2ccccc2)NC(=O)[C@@H](Cc2ccccc2)NC1=O  IC50 (Balamuthia mandrillaris; parasite growth, ATP luminescence; 72 h): ≤ 5 µM
CN(C)c1cc(NC(=O)Cc2cnccn2)c(O)c2c1C[C@H]1C[C@H]3[C@H](N(C)C)C(O)=C(C(N)=O)C(=O)[C@@]3(O)C(O)=C1C2=O  IC50 (Mycobacteroides abscessus; microbial growth, resazurin; ATCC19977): 0.75 µg/mL
CC(C)[C@@H]1NC(=O)[C@@H](Cc2c[nH]c3ccccc23)NC(=O)[C@H]([C@@H](C)O)NC(=O)[C@@H](CCCCN)NC(=O)[C@H](Cc2ccccc2)NC(=O)[C@@H](Cc2ccccc2)NC1=O  IC50 (Balamuthia mandrillaris; parasite growth, ATP luminescence): > 20 µM
Cc1cc([C@@H](C)Nc2ccccc2C(=O)O)c2nc(N3CCC(F)(F)CC3)c(C#N)c(=O)n2c1  remaining binding (TGF-beta receptor type-1 (TGFBR1, Homo sapiens, UniProt P36897); binding, competition with immobilised ligand; 1 µM): 71%

Repeated from above:
Fc1ccc(Nc2c(-c3cccc(F)n3)nc3ccccn23)cc1  IC50 (Leishmania infantum; parasite growth; intracellular, amastigote): 30.1 µM and > 64 µM
CN(C)C(=O)c1ccc(-c2c(-c3ccccn3)nc3n2CCC3)cc1  IC50 (Leishmania infantum; parasite growth; intracellular, amastigote): 29 µM and > 64 µM
